Measurements pooled from the literature.
Parts stem from different laboratories: compare values within a part only. Positions count from the first letter of the parent shown.

Set 1
Target: CCND2, cyclin fold, Cln2 fusion (human)
Technique: yeast growth competition, sequencing
Matrix: yeast
Setting: weak parent motif
Relative to: not given
Direction: higher = stronger binding
Starting sequence: CDKN1A docking peptide (human); SKACRRLFGPVDS
Change	normalised enrichment score
G9C	0.492
K2F	0.276
P10H	-0.0542
D12M	0.473
R5I	0.341
F8N	0.000807
D12I	0.143
G9N	0.18
G9A	0.85
C4F	-0.746
L7R	0.0438
L7Q	0.0428
R5P	0.0117
R5T	0.211
S13A	0.761
R6T	0.462

Set 2
Target: Ras GTPase-activating protein-binding protein 1, full length (G3BP1, Homo sapiens, UniProt Q13283)
Chain of UniProt Q13283 (whole entry, looked up): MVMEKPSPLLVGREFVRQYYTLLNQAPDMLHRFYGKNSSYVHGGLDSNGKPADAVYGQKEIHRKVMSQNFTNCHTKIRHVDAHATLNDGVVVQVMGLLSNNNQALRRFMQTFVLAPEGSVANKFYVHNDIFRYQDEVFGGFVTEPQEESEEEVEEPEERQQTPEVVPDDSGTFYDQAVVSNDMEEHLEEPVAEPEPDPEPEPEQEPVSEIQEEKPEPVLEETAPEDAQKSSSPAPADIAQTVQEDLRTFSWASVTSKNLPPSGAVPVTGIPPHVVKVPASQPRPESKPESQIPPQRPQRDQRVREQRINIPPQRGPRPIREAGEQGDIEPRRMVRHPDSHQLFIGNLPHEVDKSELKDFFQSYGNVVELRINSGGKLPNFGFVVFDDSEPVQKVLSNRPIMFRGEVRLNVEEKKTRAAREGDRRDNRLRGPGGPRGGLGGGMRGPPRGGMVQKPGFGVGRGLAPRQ
Technique: RNA Bind-n-Seq
Form: RNA
Matrix: in vitro
Tested at: 200 nM
Setting: whole 134-nt RNA, ends assumed
Together with: 150 mM LiCl
Relative to: input library
Direction: higher = stronger binding
Library: 7-deaza-guanosine replaces G
All sequences stand within: GGGAGUUCUACAGUCCGACGAUC … UGGAAUUCUCGGGUGUCAAGG
Sequence	log2 enrichment
CACAGACAACACGCACCCACACAGACACAGAGGGAAGGGGUUGGGAUGGGGAUAGGGUGCACAGCAGGGCGGGGUAGGACCCCAGCCCCU	-0.435
GAGCUGGAAGCUAUCAAAGCUCGAGUCAGGGAGAUGGAGGAAGAAGCUGAGAAGCUAAAGGAGCUACAGAACGAGGUAGAGAAGCAGAUG	-0.15
CCUCAAGUCCUGUGCUACACAUCGUAUGUACCGAAUCGGGUGGGUGGGAGGGAAAGUAUUAUGUUACGCCGUUCGGAUCUGCACUUCCAG	0.489
UGUUUAUCCAACAUAUGAUUUUGCCUGCCCCAUAGUUGACAGCAUCGAAGGUGUUACACAUGCCCUGAGAACAACAGAAUACCAUGACAG	0.126
CAAGCCAAGGAAAUGGUGUUAGAGUUAAUUCGUGAUCAAGGCGGUUUCAGAGAAGUUCGGAAUGAGUAUGGGUCAAGAAUAGGAGGAAAU	-2.28
GUGCUACACAUCGUAUGUACCGAAUCGGGGAAAAAAAGGGGAAAAAAAGGGGAAAAAAAGGGGAAAGUAUUAUGUUACGCCGUUCGGAUC	0.427

Set 3
Target: RNA binding protein fox-1 homolog 2, RRM domain, GST-SBP tag (RBFOX2, Homo sapiens, UniProt O43251-10, residues 100-194)
Technique: RNA Bind-n-Seq
Form: RNA
Matrix: in vitro
Tested at: 365 nM
Setting: natural RNA segment, single round, ends assumed
Relative to: no-protein control
Direction: higher = stronger binding
All sequences stand within: GGGAGUUCUACAGUCCGACGAUC … UGGAAUUCUCGGGUGCCAA
Target sequence (chain): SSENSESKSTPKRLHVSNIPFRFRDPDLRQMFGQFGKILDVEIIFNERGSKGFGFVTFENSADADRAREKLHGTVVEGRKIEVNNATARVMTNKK
Sequence	RBNS enrichment (R)
CCUGCAGCCAGGGGAUGGGGAGCCUCUGCUCCCCCCAUGCUCCCACCCUGGCUGAGGGCCAGCCUCAUCUGCAGAGCCCUGGAGGAGGCCCACCUAUGGACACAGCCCGA	0.597
AGUGUGGCUUCAUGGGAGCCCUGUUACUUCUCCAUGAAACCCCAGCUCUCUAGGCCUGACUGCCACCAGAGUCCUCUUACCACCUGCAGUCUGCCACAAAGAUGCCAUAU	0.474
CCAUCGCAGAUGAGUGACAAGAGAGAAGGCUGUCAACACUUCGGUACAUGGUGAUCUUAAAAACACCCACCUGCACCAUCACACCAGACUGUACCACUAGGGCAUCCAGA	0.256
CUUUUUUAAGUGAUGCAGACCUUAGUUUCUUUAGCCCCUUUAUUUUGAAUACAAUGCUACAUAUGAAUGUUGAAGCUGAUACAUUGCACAGUUCUGUAGACAUCACUACA	1.32
UUUUAGCAAGCAUUAAAGCAAAUGUAUGGCUGCCUUUUGAAAUAUUUGAUGUGUUGCCUGGCAGGAUACUGCAAAGAACAUGGUUUAUUUUAAAAUUUAUAAACAAGUCA	1.02
CUGGAAGACCAUUCCAACUUGGACGCGUUACCAUGAGAGCAUAUCCUAUCCAACCGUACUAACGUGGACACCCUACACCUCCCCUCAGAACUUCAAAAGGGCAAGAUCUU	0.327
AGUUUUCUGUAAUUCUCCCCCUCUUUAAAAACAUCACUGAAAUUUCAAUAAAUUUUUAUUGAAAUGAGUUUUGAAGUUGUGGUAAUGAUUUCUUCAAGAGUUGUCUUUCA	0.396
AUUUAAGUUUUCAGAGGUAAGUCUGUUGUUCUGAUUAAUCUGCAUUCAUUCAGCGAAUGCUCAAGACAAGCCAGGCAUGCUGAGAAGCGGCGCUCUAGUUGUAUGUAAGA	0.536
CGGUCCAAGGACUUUUACUUUGCGCUUCGUAACUACUGCCAGCUUCUCCUCUCCUGGCCCUGCUCCCAGAUUGCAGCCUCCCUGCAGUGUCUGCCCUUGCCACCUCCCAG	0.443
UGUCAUCUUUAGAAAGUGAGAUAACCAAGGAAAUAAUUGAAGGAGUAUAGGGAGAUGGAUUAAGUUGAUAAUGACAUUUAGGGCAACUUAAGACCUUUGAUCCCAGGUUC	0.897
AGGAUCAGUCGUGGGCAGGACUCACAUACCUCAGCUCUGGAGGAGCUAGCACUGUCUGGAAUGGCCUGUGUUGUAAGUGUCUUGGCCUCUAGGGAAGGUUUGUGCUGGCC	4.77
CACUUGGCCCUUUUCCAAGCACAUCUGGGCAGAUAUAGACACAGGAAGAUAGGGUCCAACAGCGAGAGCCAGGCCCCUCCCCACCCCCACCAGCUCUCUCUAUCAUGGAU	0.313

Set 4
Target: Sal-like protein 4, full length isoform B (SALL4, Homo sapiens, UniProt Q9UJQ4-2, residues 1-616)
Technique: universal PBM
Form: double-stranded DNA, one strand shown
Matrix: in vitro
Tested at: not given
Setting: 8-mer, flanks averaged, mean of replicates
Direction: higher = stronger binding
Construct (chain): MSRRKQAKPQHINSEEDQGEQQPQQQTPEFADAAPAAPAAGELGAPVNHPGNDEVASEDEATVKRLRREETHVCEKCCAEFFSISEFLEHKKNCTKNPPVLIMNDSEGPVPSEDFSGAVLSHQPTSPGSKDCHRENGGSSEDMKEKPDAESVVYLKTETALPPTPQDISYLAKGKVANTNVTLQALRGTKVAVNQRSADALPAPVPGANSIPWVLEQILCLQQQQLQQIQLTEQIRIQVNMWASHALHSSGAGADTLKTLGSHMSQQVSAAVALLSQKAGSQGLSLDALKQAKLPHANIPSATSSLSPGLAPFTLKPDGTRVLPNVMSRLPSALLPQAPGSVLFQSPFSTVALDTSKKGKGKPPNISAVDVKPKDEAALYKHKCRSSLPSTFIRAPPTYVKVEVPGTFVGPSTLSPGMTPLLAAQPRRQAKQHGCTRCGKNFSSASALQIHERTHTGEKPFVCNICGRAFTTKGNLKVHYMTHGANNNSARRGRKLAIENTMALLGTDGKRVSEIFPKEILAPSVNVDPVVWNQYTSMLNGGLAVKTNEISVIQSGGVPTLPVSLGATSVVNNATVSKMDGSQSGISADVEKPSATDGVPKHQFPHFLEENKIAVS
Sequence	E-score
AGGTAGCG	-0.106
GTAACGGA	-0.0582
CACGCTGG	-0.136
ATGGATGC	0.0726
CGCTATCA	-0.0233
AAAATAGG	0.262
ACCACACG	-0.0863
CCACACAC	-0.0962
AACGGACG	-0.197
ACTCGCAT	0.0673
AGCGCCCA	-0.289
AAGTGCTC	-0.178
CAGTCAAG	-0.104
ATTCCAGC	-0.112
GGCATCCC	-0.344
AAAGAAGG	0.0102
AGTAAGGG	-0.0689
GAAATTAC	0.283
AAGTCCAA	0.148
CATCTCCC	-0.144
GATGTCCC	-0.21
TTAATAAA	0.445
GAGCACTC	-0.194
ACCTCCGT	-0.0997
ATTTCGCG	0.129

Set 5
Target: Histone acetyltransferase KAT6A, both winged helices, GST fusion (KAT6A, Homo sapiens, UniProt Q92794, residues 1-181)
Technique: protein binding microarray
Form: double-stranded DNA, one strand shown
Matrix: in vitro
Tested at: not given
Setting: 8-mer, flanks averaged, mean of 2 arrays, mostly near background
Relative to: not given
Direction: higher = stronger binding
Residues (chain): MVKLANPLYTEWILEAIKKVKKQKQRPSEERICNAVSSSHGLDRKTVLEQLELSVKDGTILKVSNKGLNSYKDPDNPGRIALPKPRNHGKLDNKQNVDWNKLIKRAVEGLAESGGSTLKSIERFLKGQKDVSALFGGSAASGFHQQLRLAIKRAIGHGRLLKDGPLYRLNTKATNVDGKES
Sequence	E-score
AGCGAATC	0.0439
ACCACCAG	-0.247
AGACTTCA	-0.228
TCAGTCGA	-0.068
GTGCGAAC	0.107
AACGATCT	0.0674
GAAGGGTC	-0.0528
ACAGTTGG	-0.0493
AAATGCCA	-0.263
CATTCACG	0.119
GTCAAAGA	-0.135
ACGTTAGA	-0.0473
AACGGAGC	0.174
AACGTAGG	-0.195
CATAGGTC	-0.137
CAGACAGA	-0.128
ACCTCTAG	-0.0956
CCCCTAAC	-0.103

Set 6
Target: ABI1, truncated, D143A, DHFR fusion (Arabidopsis thaliana)
Technique: DHFR PCA, deep sequencing
Matrix: yeast
Setting: methotrexate growth selection, single substitutions
Together with: (+)-ABA 58 µM
Relative to: wild-type fitted maximum
Direction: higher = stronger binding
Starting sequence: PYL1, truncated, DHFR fusion (Arabidopsis thaliana); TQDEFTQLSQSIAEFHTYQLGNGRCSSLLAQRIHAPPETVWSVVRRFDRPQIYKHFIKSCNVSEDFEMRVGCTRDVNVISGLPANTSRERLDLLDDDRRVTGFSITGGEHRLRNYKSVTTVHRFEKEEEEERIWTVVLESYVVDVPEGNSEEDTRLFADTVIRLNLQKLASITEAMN; partner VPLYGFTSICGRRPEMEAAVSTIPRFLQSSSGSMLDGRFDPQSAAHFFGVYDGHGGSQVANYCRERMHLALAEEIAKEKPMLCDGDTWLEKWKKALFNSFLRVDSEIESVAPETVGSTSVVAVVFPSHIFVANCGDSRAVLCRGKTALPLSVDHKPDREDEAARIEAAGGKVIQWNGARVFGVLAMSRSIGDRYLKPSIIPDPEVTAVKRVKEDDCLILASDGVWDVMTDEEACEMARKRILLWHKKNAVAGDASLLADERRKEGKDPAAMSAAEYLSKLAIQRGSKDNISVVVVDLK
Change	relative binding score [%]
L166Q	32.2
D65G	84.9
A175I	72.9
A30Y	88.3
T173G	57
I12C	46.6
E14W	39.3
T17K	79.2
S59I	44.7
A13S	83.7
V118E	3.06
L91T	3.21
F124S	78.8
N177G	77

A few entries again (set 3):
Sequence	RBNS enrichment (R)
CCAUCGCAGAUGAGUGACAAGAGAGAAGGCUGUCAACACUUCGGUACAUGGUGAUCUUAAAAACACCCACCUGCACCAUCACACCAGACUGUACCACUAGGGCAUCCAGA	0.256
CACUUGGCCCUUUUCCAAGCACAUCUGGGCAGAUAUAGACACAGGAAGAUAGGGUCCAACAGCGAGAGCCAGGCCCCUCCCCACCCCCACCAGCUCUCUCUAUCAUGGAU	0.313
CGGUCCAAGGACUUUUACUUUGCGCUUCGUAACUACUGCCAGCUUCUCCUCUCCUGGCCCUGCUCCCAGAUUGCAGCCUCCCUGCAGUGUCUGCCCUUGCCACCUCCCAG	0.443
AGUGUGGCUUCAUGGGAGCCCUGUUACUUCUCCAUGAAACCCCAGCUCUCUAGGCCUGACUGCCACCAGAGUCCUCUUACCACCUGCAGUCUGCCACAAAGAUGCCAUAU	0.474
AUUUAAGUUUUCAGAGGUAAGUCUGUUGUUCUGAUUAAUCUGCAUUCAUUCAGCGAAUGCUCAAGACAAGCCAGGCAUGCUGAGAAGCGGCGCUCUAGUUGUAUGUAAGA	0.536
CUGGAAGACCAUUCCAACUUGGACGCGUUACCAUGAGAGCAUAUCCUAUCCAACCGUACUAACGUGGACACCCUACACCUCCCCUCAGAACUUCAAAAGGGCAAGAUCUU	0.327
CCUGCAGCCAGGGGAUGGGGAGCCUCUGCUCCCCCCAUGCUCCCACCCUGGCUGAGGGCCAGCCUCAUCUGCAGAGCCCUGGAGGAGGCCCACCUAUGGACACAGCCCGA	0.597
CUUUUUUAAGUGAUGCAGACCUUAGUUUCUUUAGCCCCUUUAUUUUGAAUACAAUGCUACAUAUGAAUGUUGAAGCUGAUACAUUGCACAGUUCUGUAGACAUCACUACA	1.32
AGGAUCAGUCGUGGGCAGGACUCACAUACCUCAGCUCUGGAGGAGCUAGCACUGUCUGGAAUGGCCUGUGUUGUAAGUGUCUUGGCCUCUAGGGAAGGUUUGUGCUGGCC	4.77
AGUUUUCUGUAAUUCUCCCCCUCUUUAAAAACAUCACUGAAAUUUCAAUAAAUUUUUAUUGAAAUGAGUUUUGAAGUUGUGGUAAUGAUUUCUUCAAGAGUUGUCUUUCA	0.396
UGUCAUCUUUAGAAAGUGAGAUAACCAAGGAAAUAAUUGAAGGAGUAUAGGGAGAUGGAUUAAGUUGAUAAUGACAUUUAGGGCAACUUAAGACCUUUGAUCCCAGGUUC	0.897
UUUUAGCAAGCAUUAAAGCAAAUGUAUGGCUGCCUUUUGAAAUAUUUGAUGUGUUGCCUGGCAGGAUACUGCAAAGAACAUGGUUUAUUUUAAAAUUUAUAAACAAGUCA	1.02
